# Measurements gathered from unrelated publications.
# Numbers after ± are the reported error.
# Cell line: HeLa
Compound,test,setting,scale,endpoint,value
COc1c(C)c2c(c(O)c1C/C=C(\C)CCC(=O)O)C(=O)OC2,cell proliferation,,,IC50,1.41 µM
CCCCCCCCc1ccc(C(=O)Nc2ccccc2C(=O)OCC)cc1,cell proliferation,,,IC50,> 100 µM
CCCCCCCCCCCCCCC(Br)C(=O)O (centres unmarked),,"150 µM, 1 h",baseline: methyl palmitate,mitochondrial area decrease,2.8 fold
CC(N)C(O)CCCCCCCCCCCCCCC(=O)CCCCCCCC(O)C(C)N (centres unmarked),cytotoxicity,concentration not given,,growth inhibition,99 ± 0.12%
N.N.[Cl][Pt][Cl],"cell growth, MTT","48 h, LED photolysed 1 h",,IC50,17.6 ± 5.7 µM
CC[C@H](C)[C@@H]([C@@H](CC(=O)N1CCC[C@H]1[C@H](OC)[C@@H](C)C(=O)N[C@@H](Cc1ccccc1)C(=O)O)OC)N(C)C(=O)[C@@H](NC(=O)[C@H](C(C)C)N(C)C(=O)CCSSC[C@H](NC(=O)[C@@H](NC(=O)CNC(=O)[C@H](CCC(=O)O)NC(=O)[C@H](CC(=O)O)NC(=O)[C@H](C)NC(=O)[C@H](CC(=O)O)NC(=O)[C@@H](NC(=O)[C@H](CC(C)C)NC(=O)[C@H](CC(C)C)NC(=O)[C@H](C)NC(=O)[C@H](CC(C)C)NC(=O)[C@H](CC(=O)O)NC(=O)[C@H](CC(C)C)NC(=O)[C@H](CC(C)C)NC(=O)[C@H](CC(C)C)NC(=O)[C@H](CC(C)C)NC(=O)[C@@H]1CCCN1C(=O)[C@@H](NC(=O)[C@@H](NC(=O)[C@H](Cc1ccccc1)NC(=O)[C@H](CC(C)C)NC(=O)[C@H](Cc1c[nH]c2ccccc12)NC(=O)[C@H](CC(=O)O)NC(=O)[C@H](C)NC(=O)[C@H](Cc1ccc(O)cc1)NC(=O)[C@H](CCCNC(=N)N)NC(=O)[C@H](C)NC(=O)[C@H](Cc1c[nH]c2ccccc12)NC(=O)[C@H](Cc1ccc(O)cc1)NC(=O)[C@@H](NC(=O)[C@@H]1CCCN1C(=O)[C@H](CC(N)=O)NC(=O)[C@H](CCC(N)=O)NC(=O)[C@H](CCC(=O)O)NC(=O)[C@H](C)NC(=O)[C@H](C)N)[C@@H](C)CC)[C@@H](C)O)[C@@H](C)O)C(C)C)[C@@H](C)O)C(=O)NCC(N)=O)C(C)C,"cell growth, MTT",2 h,baseline: IC50 pH 7.4 over IC50 pH 5.0,selectivity ratio,22 fold
C[C@@H](N)[C@H](O)CCCCCCCC(=O)CCCCCCCCCCCCCC[C@@H](O[C@@H]1O[C@H](CO)[C@H](O)[C@H](O)[C@H]1O)[C@@H](C)N,cytotoxicity,concentration not given,,growth inhibition,99 ± 0.16%
CC[C@H](C)[C@@H]([C@@H](CC(=O)N1CCC[C@H]1[C@H](OC)[C@@H](C)C(=O)N[C@@H](Cc1ccccc1)C(=O)O)OC)N(C)C(=O)[C@@H](NC(=O)[C@@H](NC)C(C)C)C(C)C,"cell growth, MTT",72 h,,IC50,0.834 ± 0.04 µM
COc1cc(C)[nH]c(=O)c1CNC(=O)c1c(C)n([C@H](C)C2CCN(CC(F)(F)F)CC2)c2ccccc12,"histone methylation reduction, AlphaLISA, measured: H3K27me3",72 h,,EC50,0.026 µM
CC[C@H](C)[C@@H]([C@@H](CC(=O)N1CCC[C@H]1[C@H](OC)[C@@H](C)C(=O)N[C@@H](Cc1ccccc1)C(=O)O)OC)N(C)C(=O)[C@@H](NC(=O)[C@H](C(C)C)N(C)C(=O)CCSSC[C@H](NC(=O)[C@@H](NC(=O)CNC(=O)[C@H](CCC(=O)O)NC(=O)[C@H](CC(=O)O)NC(=O)[C@H](C)NC(=O)[C@H](CC(=O)O)NC(=O)[C@@H](NC(=O)[C@H](CC(C)C)NC(=O)[C@H](CC(C)C)NC(=O)[C@H](C)NC(=O)[C@H](CC(C)C)NC(=O)[C@H](CCCC(=O)O)NC(=O)[C@H](CC(C)C)NC(=O)[C@H](CC(C)C)NC(=O)[C@H](CC(C)C)NC(=O)[C@H](CC(C)C)NC(=O)[C@@H]1CCCN1C(=O)[C@@H](NC(=O)[C@@H](NC(=O)[C@H](Cc1ccccc1)NC(=O)[C@H](CC(C)C)NC(=O)[C@H](Cc1c[nH]c2ccccc12)NC(=O)[C@H](CC(C(=O)O)C(=O)O)NC(=O)[C@H](C)NC(=O)[C@H](Cc1ccc(O)cc1)NC(=O)[C@H](CCCNC(=N)N)NC(=O)[C@H](C)NC(=O)[C@H](Cc1c[nH]c2ccccc12)NC(=O)[C@H](Cc1ccc(O)cc1)NC(=O)[C@@H](NC(=O)[C@@H]1CCCN1C(=O)[C@H](CC(N)=O)NC(=O)[C@H](CCC(N)=O)NC(=O)[C@H](CCC(=O)O)NC(=O)[C@H](C)NC(=O)[C@H](C)N)[C@@H](C)CC)[C@@H](C)O)[C@@H](C)O)C(C)C)[C@@H](C)O)C(=O)NCC(N)=O)C(C)C,"cell growth, MTT",2 h,baseline: IC50 pH 7.4 over IC50 pH 5.0,selectivity ratio,67 fold
CC[C@H](C)[C@@H]([C@@H](CC(=O)N1CCC[C@H]1[C@H](OC)[C@@H](C)C(=O)N[C@H](C)[C@@H](O)c1ccccc1)OC)N(C)C(=O)[C@@H](NC(=O)[C@H](C(C)C)N(C)C(=O)OCc1ccc(NC(=O)[C@H](CCCNC(N)=O)NC(=O)[C@@H](NC(=O)CCCCCN2C(=O)CC(SCCC(=O)N[C@@H](Cc3cn(CCOCCNCCCCCCOc4cc(OCCCc5c(C)n[nH]c5C)cc(C(=O)O)c4)nn3)C(=O)NCCCCCC(=O)NCCCC[C@H](NC(=O)N[C@@H](CCC(=O)O)C(=O)O)C(=O)O)C2=O)C(C)C)cc1)C(C)C (some centres unmarked),"cell proliferation, MTT",together with: transthyretin,,IC50,0.784 µM

# Some of these lines once more:
Compound,test,setting,scale,endpoint,value
CC(N)C(O)CCCCCCCCCCCCCCC(=O)CCCCCCCC(O)C(C)N (centres unmarked),cytotoxicity,concentration not given,,growth inhibition,99 ± 0.12%
